Assay results pooled from the literature.
Each line is one published result; not all experiments were run side by side. Numbers after ± are the reported error.

Structure (SMILES)	system	conditions	quantity	result
N=C(N)NCc1ccc(C(=O)NCCCC[C@H](NC(=O)CCCCCCC(=O)NCCCC[C@H](NC(=O)N[C@@H](CCC(=O)O)C(=O)O)C(=O)O)C(=O)O)cc1[131I]	SCID mouse, PC-3 xenografts, kidneys	1 h	tissue uptake	121 ± 24 %ID/g
CN[C@](C)(C[18F])C(=O)O	SCID mouse DU-145 xenograft, pancreas	120 min post injection	tissue uptake	18 ± 5.1 %ID/g
CCc1nn(C)c2nc(-c3ccc(C(=O)O)cc3)nc(NCc3ccccc3)c12	CD-1 mouse, male, intestinal tissue	oral, 10 mg/kg	tissue persistence time	≥ 7 h
O=C(O)CC[C@H](NC(=O)O[C@@H](CCCCNC(=O)c1ccc([18F])cc1)C(=O)O)C(=O)O	mouse, PC-3 PIP/flu xenografts, kidney	60 min	tissue uptake	6.97 ± 7.02 %ID/g
N=C(N)NCc1ccc(C(=O)NCCCC[C@H](NC(=O)N[C@@H](CCC(=O)O)C(=O)O)C(=O)O)cc1[131I]	SCID mouse, PC-3 xenografts, bone	21 h	tissue uptake	0.03 ± 0.01 %ID/g
C[S]1CC[S]2CC[P](CO)(CO)[99Tc+]12.[C-]#[O+].[C-]#[O+].[C-]#[O+]	female CF-1 mouse, large intestine	intravenous, 1 h	tissue uptake	19.1 %ID/g
N=C(N)NCc1ccc(C(=O)NCCCC[C@H](NC(=O)N[C@@H](CCC(=O)O)C(=O)O)C(=O)O)cc1[211At]	SCID mouse, PC-3 xenografts, blood	21 h	tissue uptake	0.09 ± 0.07 %ID/g
C=Cc1cc(O)cc2nc(-c3ccc(O)c([76Br])c3)oc12	female C57BL/6 mouse, spleen	3 h, high dose	tissue uptake	0.05 ± 0.01 %ID/g
Cn1cc(-c2cccc(CN3CCC4(CC3)COc3c4ccc4c3CN([C@H]3CCC(=O)NC3=O)C4=O)c2)cn1	mouse Crbn I391V, thymus	oral, 10 mg/kg, 6 h	tissue concentration	76 ng/g
COC(=O)C[C@](O)(CCCC(C)(C)OC(C)=O)C(=O)O[C@@H]1C(OC)=C[C@]23CCCN2CCc2cc4c(cc2[C@H]13)OCO4	CD1 mouse, liver	oral, 1 mg/kg, 24 h, below quantification limit 1.00 ng/mL	tissue concentration	not detected
CCCCCCCC(=O)NCCCC[C@H](NC(=O)[C@H](Cc1ccccc1)NC(=O)[C@@H](CCCNC(=N)N)NC(=O)[C@@H](N)Cc1ccc(O)cc1)C(N)=O	CD-1 mouse, male, heart	intravenous, 3 mg/kg, 180 min	tissue concentration	675 ± 72 ng/g

Repeated from above:
Structure (SMILES)	system	conditions	quantity	result
Cn1cc(-c2cccc(CN3CCC4(CC3)COc3c4ccc4c3CN([C@H]3CCC(=O)NC3=O)C4=O)c2)cn1	mouse Crbn I391V, thymus	oral, 10 mg/kg, 6 h	tissue concentration	76 ng/g
COC(=O)C[C@](O)(CCCC(C)(C)OC(C)=O)C(=O)O[C@@H]1C(OC)=C[C@]23CCCN2CCc2cc4c(cc2[C@H]13)OCO4	CD1 mouse, liver	oral, 1 mg/kg, 24 h, below quantification limit 1.00 ng/mL	tissue concentration	not detected
